Results of several laboratories.
Protocols differ between the studies behind these lines. Values joined by “and” are separate records of one study, mostly repeats; a detail may differ. ± gives the spread as reported.

CCC(=O)N[C@@H](C)C(=O)OCC(=O)N[C@@H](C)C(=O)O
chain scission rate constant (water; pH 3, 65 °C): 0.0076 h⁻¹

COC1OC(C)C(O)C(OC2OC(C)C(O)C(OC3OC(C)C(O)C(OS(=O)(=O)O)C3OS(=O)(=O)O)C2OS(=O)(=O)O)C1OS(=O)(=O)O (stereo not drawn)
prothrombin time prolongation (human plasma; 128 µg/mL; relative to: control): 1 fold

COc1cc(O)ccc1CCC(c1ccc(O)cc1)c1cc2c(c(C)c1O)OC(c1ccc(O)cc1)CC2 (mixture of isomers)
amount (item: RvD5; human whole blood; 0.3 µM, together with: Escherichia coli): 8 ± 2 pg/mL blood

CC(C)OC(=O)[C@H](CO)NCc1cc(Cl)c(OCc2cccc(-c3ccccc3)c2Br)cc1OCc1cccnc1
tumour volume (hPD-L1 MC-38 tumour, humanised hPD-1 C57BL/6 mouse; oral, 5 mg/kg × 21, day 20): 1290 ± 514 mm³

COc1cc(/C=C2\CNC/C(=C\c3cc(Cl)c(O)c(OC)c3)C2=O)cc(Cl)c1O
IC50 (ABTS scavenging; 20 min): 45 µg/mL

S=C(S)OC1CC2CC1C1CCCC21 (stereo not drawn)
Met-enkephalin concentration (LC-MS/MS, item: extracellular Met-enkephalin; mouse striatal brain slices; 500 µM, 20 min, together with: 50 mM KCl): 2430 pM and 6170 pM and 2480 pM and 1170 pM and 467 pM and 3580 pM and 903 pM and 539 pM

COC1OC(C)C(OC2OC(C)C(O)C(OS(=O)(=O)O)C2OS(=O)(=O)O)C(OS(=O)(=O)O)C1OS(=O)(=O)O (stereo not drawn)
prothrombin time (human plasma; 128 µg/mL): 15.5 ± 0.7 s

COC1CN([C@H]2CC[C@H]([C@@]3(C)Oc4c(Cl)cc(C(=O)NCc5c(SC)cc(C)[nH]c5=O)c(C)c4O3)CC2)C1
log2 fold change (RNA-seq, item: DTNA; human, whole blood; dose not given, 24 h; relative to: pretreatment baseline): 3.4

COC1OC(C)C(OC2OC(C)C(OS(=O)(=O)O)C(OC3OC(C)C(OC4OC(C)C(OS(=O)(=O)O)C(OC5OC(C)C(OC6OC(C)C(OS(=O)(=O)O)C(OC7OC(C)C(OC8OC(C)C(OS(=O)(=O)O)C(OC9OC(C)C(OS(=O)(=O)O)C(OS(=O)(=O)O)C9O)C8O)C(OS(=O)(=O)O)C7O)C6O)C(OS(=O)(=O)O)C5O)C4O)C(OS(=O)(=O)O)C3O)C2O)C(OS(=O)(=O)O)C1O (stereo not drawn)
prothrombin time prolongation (human plasma; 128 µg/mL; relative to: control): 1 fold

O=C(NS(=O)(=O)c1cccs1)c1cc2ccccc2n1Cc1ccc(Br)c2ccccc12
serum uric acid (mouse, chronic hyperuricaemia model, serum; dose not given): 469 µM and 304 µM and 267 µM and 509 µM and 365 µM and 489 µM

CCCCC(CSS(=O)(=O)O)NCC(C)C (stereo not drawn)
liver weight decrease (Swiss Webster mice, Schistosoma mansoni infected; 100 mg/kg; relative to: vehicle control): 19%

CC(C)C[C@H](NC(=O)[C@H](Cc1ccccc1)NC(=O)[C@H](C)NC(=O)[C@@H](CS)NC(=O)CNC(=O)[C@H](N)CO)C(=O)N[C@@H](CO)C(=O)N[C@H](C(=O)N[C@@H](CCCCN)C(=O)N[C@@H](CCCCN)C(=O)N[C@@H](CCC(N)=O)C(=O)N[C@@H](Cc1ccccc1)C(=O)N[C@@H](CCC(=O)O)C(=O)N[C@@H](CCC(=O)O)C(=O)N[C@@H](CC(C)C)C(=O)N[C@H](C(=O)N[C@@H](CC(C)C)C(=O)NCC(=O)N[C@@H](CCC(=O)O)C(=O)N[C@@H](Cc1ccccc1)C(=O)N[C@@H](CC(C)C)C(=O)N[C@H](CCCCN)C(=O)N[C@H](CC(C)C)C(=O)N[C@H](CC(=O)O)C(=O)N[C@@H](CCCNC(=N)N)C(=O)N[C@H](CCCNC(=N)N)C(=O)N[C@@H](CCCNC(=N)N)C(=O)N[C@@H](CCCCN)C(=O)O)[C@@H](C)O)C(C)C
p53 level (immunofluorescence, immunoblot; mouse A549 xenograft, tumour; intravenous, dose not given): decreased

CN1CCC[C@]1(C)/C=C/S(=O)(=O)NC(=O)Nc1c2c(cc3c1CCC3)CCC2
IL-18 inhibition (human, whole blood ex vivo; 100 mg twice daily, day 14, 36 h, multiple ascending dose, together with: LPS and ATP): 103%

Nc1nc2cc(CC[C@H]3C[C@@H](n4ccc5c(N)ncnc54)[C@H](O)[C@@H]3O)ccc2cc1Br
tumour volume (NCI-H520 xenograft, mouse; 1.0 mg/kg/day, day 27): 708 ± 114 mm3

CC(=O)[O-].O.O.O.O.[Co+2].[O-]c1ccc(Br)cc1C=NCCN1CCOCC1
inhibition (hydroxyl radical scavenging; 200 µM): 45.7%

COC1OC(C)C(OS(=O)(=O)O)C(OC2OC(C)C(OS(=O)(=O)O)C(OC3OC(C)C(OS(=O)(=O)O)C(OC4OC(C)C(OS(=O)(=O)O)C(OC5OC(C)C(OS(=O)(=O)O)C(OC6OC(C)C(OS(=O)(=O)O)C(OC7OC(C)C(OS(=O)(=O)O)C(OS(=O)(=O)O)C7OS(=O)(=O)O)C6OS(=O)(=O)O)C5OS(=O)(=O)O)C4OS(=O)(=O)O)C3OS(=O)(=O)O)C2OS(=O)(=O)O)C1OS(=O)(=O)O (stereo not drawn)
prothrombin time prolongation (human plasma; 128 µg/mL; relative to: control): 1.01 fold

OCc1ccc(C2NCCc3cc(O)c(O)cc32)o1 (stereo not drawn)
IC50 (ABTS scavenging; 10 min, dark): 9.22 µM

COC1OC(C)C(OC2OC(C)C(O)C(OC3OC(C)C(OC4OC(C)C(O)C(OC5OC(C)C(OC6OC(C)C(O)C(OC7OC(C)C(OC8OC(C)C(O)C(OC9OC(C)C(OC%10OC(C)C(O)C(OS(=O)(=O)O)C%10OS(=O)(=O)O)C(OS(=O)(=O)O)C9OS(=O)(=O)O)C8OS(=O)(=O)O)C(OS(=O)(=O)O)C7OS(=O)(=O)O)C6OS(=O)(=O)O)C(OS(=O)(=O)O)C5OS(=O)(=O)O)C4OS(=O)(=O)O)C(OS(=O)(=O)O)C3OS(=O)(=O)O)C2OS(=O)(=O)O)C(OS(=O)(=O)O)C1OS(=O)(=O)O (stereo not drawn)
prothrombin time prolongation (human plasma; 128 µg/mL; relative to: control): 0.98 fold

CC(=O)N1c2ccc(-c3ccc(CNC(=O)c4cn5cc(-c6cnc(N)nc6)nc(N6CCOCC6)c5n4)cc3)cc2CC[C@@H]1C
sustained complete lymphoma clearance (mice transplanted Eµ-Myc lymphoma; 45 mg/kg, 15 d dosing): 90%

COC1OC(C)C(OC2OC(C)C(OS(=O)(=O)O)C(OC3OC(C)C(OC4OC(C)C(OS(=O)(=O)O)C(OC5OC(C)C(OC6OC(C)C(OS(=O)(=O)O)C(OS(=O)(=O)O)C6OS(=O)(=O)O)C(OS(=O)(=O)O)C5OS(=O)(=O)O)C4OS(=O)(=O)O)C(OS(=O)(=O)O)C3OS(=O)(=O)O)C2OS(=O)(=O)O)C(OS(=O)(=O)O)C1OS(=O)(=O)O (stereo not drawn)
prothrombin time (human plasma; 128 µg/mL): 15.5 ± 0.5 s

COc1c(Cl)cccc1Nc1c(-c2ccncc2C#C[C@@]2(C)CCCN2C(=O)/C=C/CN(C)C)[nH]c2c1C(=O)NCC2
tumour growth inhibition (CUTO14, EGFR ASV, female NSG mouse, CUTO14 xenograft; 50 mg/kg once daily, 21 days): 190%

NC[C@@H](C(=O)Nc1ccc(-c2cn[nH]c2)cc1)c1ccccc1
IOP (tonometry; NZW rabbit, magnetic bead-induced ocular hypertension; ocular, 0.1%, 28 h): 29 mmHg

COC1OC(C)C(OC2OC(C)C(OS(=O)(=O)O)C(OC3OC(C)C(OC4OC(C)C(OS(=O)(=O)O)C(OC5OC(C)C(OS(=O)(=O)O)C(OS(=O)(=O)O)C5OS(=O)(=O)O)C4OS(=O)(=O)O)C(OS(=O)(=O)O)C3OS(=O)(=O)O)C2OS(=O)(=O)O)C(OS(=O)(=O)O)C1OS(=O)(=O)O (stereo not drawn)
prothrombin time (human plasma; 128 µg/mL): 15.8 ± 0.4 s

COc1ccc(NC(=O)c2ccc3[nH]c(-c4ccc(N(C)C)cc4)nc3c2)cn1
tumour volume (Lewis lung carcinoma, mice, syngeneic graft, subcutaneous; intraperitoneal, 50 mg/kg daily, day 3): 203 mm3 and 148 mm3 and 92.5 mm3 and 78 mm3

CC(C)(C)NCC(SS(=O)(=O)O)c1ccccc1 (stereo not drawn)
liver weight decrease (Schistosoma mansoni-infected mice; 100 mg/kg single, day 42, perfusion day 56; relative to: vehicle): 15%

COC1OC(C)C(OS(=O)(=O)O)C(OC2OC(C)C(OS(=O)(=O)O)C(OC3OC(C)C(OS(=O)(=O)O)C(OC4OC(C)C(OS(=O)(=O)O)C(OC5OC(C)C(OS(=O)(=O)O)C(OC6OC(C)C(OS(=O)(=O)O)C(OC7OC(C)C(OS(=O)(=O)O)C(OC8OC(C)C(OS(=O)(=O)O)C(OC9OC(C)C(OS(=O)(=O)O)C(OC%10OC(C)C(OS(=O)(=O)O)C(OC%11OC(C)C(OS(=O)(=O)O)C(OS(=O)(=O)O)C%11O)C%10O)C9O)C8O)C7O)C6O)C5O)C4O)C3O)C2O)C1O (stereo not drawn)
prothrombin time prolongation (human plasma; 128 µg/mL; relative to: control): 0.97 fold

CC(C)C[C@H](NC(=O)[C@H](CC(=O)O)NC(=O)CNC(=O)[C@@H](N)CCCNC(=N)N)C(=O)N[C@@H](C)C(=O)N[C@H](C(=O)N[C@@H](CC(C)C)C(=O)N[C@@H](CCCNC(=N)N)C(=O)N[C@@H](CCC(N)=O)C(=O)N[C@@H](CC(C)C)C(=O)N[C@@H](C)C(=O)N[C@@H](CCC(N)=O)C(=O)N[C@@H](CCC(=O)O)C(=O)N[C@@H](CC(=O)O)C(=O)NCC(=O)N[C@H](C(=O)N[C@H](C(=O)NCC(=O)N[C@H](C(=O)N[C@@H](CCCNC(=N)N)C(=O)NCCOCCOCCOCCOCCOCCOCCOCCOCCOCCOCCOCCOCCC(=O)N[C@@H](CS)C(N)=O)C(C)C)C(C)C)C(C)C)[C@@H](C)O
fluorescence signal ratio (ex vivo NIR imaging; NOD/SCID mice, xenograft, H460 xenograft; intravenous, 30 µg, 24 h; relative to: spleen): 0.73 and 180 and 6.12

Excerpt of the above:
COC1OC(C)C(OC2OC(C)C(O)C(OC3OC(C)C(OC4OC(C)C(O)C(OC5OC(C)C(OC6OC(C)C(O)C(OC7OC(C)C(OC8OC(C)C(O)C(OC9OC(C)C(OC%10OC(C)C(O)C(OS(=O)(=O)O)C%10OS(=O)(=O)O)C(OS(=O)(=O)O)C9OS(=O)(=O)O)C8OS(=O)(=O)O)C(OS(=O)(=O)O)C7OS(=O)(=O)O)C6OS(=O)(=O)O)C(OS(=O)(=O)O)C5OS(=O)(=O)O)C4OS(=O)(=O)O)C(OS(=O)(=O)O)C3OS(=O)(=O)O)C2OS(=O)(=O)O)C(OS(=O)(=O)O)C1OS(=O)(=O)O (stereo not drawn)
prothrombin time prolongation (human plasma; 128 µg/mL; relative to: control): 0.98 fold
